Assay results of several laboratories.
Each numbered part is a random draw from the data of one study; scales do not carry over between parts. Substitutions count along the parent as printed.

Study 1
Target: ABI1, truncated, D143A, DHFR fusion (Arabidopsis thaliana, UniProt P49597)
Technique: DHFR PCA, dose-response
Sample: yeast
Setting: Hill fit, not affinity
Together with: (+)-ABA, dose series
Direction: lower = more sensitive
Parent: PYL1, truncated, DHFR fusion (Arabidopsis thaliana, UniProt Q8VZS8); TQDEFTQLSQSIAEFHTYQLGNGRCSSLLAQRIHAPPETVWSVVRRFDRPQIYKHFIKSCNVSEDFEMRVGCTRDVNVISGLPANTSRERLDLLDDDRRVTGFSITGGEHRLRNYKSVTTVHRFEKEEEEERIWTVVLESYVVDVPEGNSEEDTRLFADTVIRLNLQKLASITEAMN
Change | ABA EC50 [nM]
N77H | 2190
E131K | 4490
V78W | 3230
T106V | 749
N22P | 4040
R69K | 1700
N85S | 1250

Study 2
Target: RNA binding protein fox-1 homolog 2, RRM domain, GST-SBP tag (RBFOX2, Homo sapiens, UniProt O43251-10, residues 100-194)
Technique: RNA Bind-n-Seq
Molecule type: RNA
Sample: in vitro
Tested at: 365 nM
Setting: natural RNA segment, single round, ends assumed
Baseline: no-protein control
Direction: higher = stronger binding
Constant ends, left off below: GGGAGUUCUACAGUCCGACGAUC … UGGAAUUCUCGGGUGCCAA
Target sequence (chain): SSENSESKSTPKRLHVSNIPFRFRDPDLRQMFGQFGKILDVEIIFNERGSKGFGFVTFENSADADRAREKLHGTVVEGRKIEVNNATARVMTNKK
Oligonucleotide | RBNS enrichment (R)
CAACUCGUUUUUAUAUUAAUGUACUUGUUUCUCUGUUGUAAGAAUAGGCAUUAACACAAAGGAGGCGUCUCGGGAGAGGAUUAGGUUCCAUCCUUUACGUGUUUAAAAAA | 0.72
GCUAGAGGGCGCUCUAGGACAGCGUCGGAUCCUGUCUCUGGCAACCCCUUGCAAGCCCACGGGGCUUCCUGGGUGGGAGGAAGAGGGUUCAGGCACUUCCCACCACCUUU | 0.269
GAAAUGUAAAUUAUUUCAAGUACUUCAGGGUUUAGUUUUCUUAGUGACACCCUGGACCCUGGAUGCUGCUUUCUAAAGUGCACCUGAUCCAUGCAGUUUUAUGUCUUCAU | 0.323
UUGUGAGUCUGCUAAGGUAGCUCUCACACACCUCGGCUCUGGGGUUGAUACCUGAGCCUGCAAUAGAGCCCUGAAAUCAAGAGCAUGGCUUGAGUGUGUGAAUAUGAUGU | 2.3
CCAUAGCUCAUCACCCCUGUCUCCUGCUGAAUGUGCAGGGCUGAUGUGGCACUGAGGAGCUGACUUUGGUCAAAGGCCAGGCUCUGCCCAGCAGGGGACUUGACUGCCCU | 0.471
AAAGGAGCUGGUAGAAGCAGAGAGUGUAUUUCCCAUCUUGAAUGGGCCGGAGGUCUCGAAGCCUCAGCUUUUACUUUGUGAGCUGCAACACUCGCUUCAGCUCAGACUCA | 0.254
GAAAGAGAGGCCUUAGGAUUCUCCUCUCUCUAGGUGCUGAGCCCUCACCUCCCUGUUCCAGGCUGAGAACUCAAAUGGUUACCCUGCUUCUUCCUACAAUGCUGUGUGAU | 0.674
CUCCAGAGCAGGUGUUGUGCCUGGAGCUGCUCUCCUGGCCUCCUUGGAUUUAUCGCAAAAACUGAAGGUUUGCGCAAGAGACGAGGACAGCGGAAAGUGGACCUGCCAGG | 0.645
AGGAGCACGGACGCCUCUGUGAGGCAUGGGAAGGUGGGAUUGUUGAACUAAUAAACGUUAAUCUGAUUGUGUGGCUAUUUUACUCUGGUGUAAAGGUUGCAGGGGCAAAG | 3.44
GCAAAACUAGGUGCUGUGGCCCCAGACUACCCAUCCUUAAAAUGAUCCUUGCCCAGCGGUGGGAGCUGGGAGACAGUGCAUGGGAGGGGCUCCCUGGCAUGCCUGCCCUA | 2.22
ACAUAUAUAAUAUACCCUUACAUUAUGUAUGAGGGAUUUUUUUAAAUUAUAUUGAAAUGCUGCCCUAGAAGUACAAUAGGAAGGCUAAAUAAUAAUAACCUGUUUUCUGG | 0.522
CUUCUCUUGGCCACCCUGGCCCUGACCGGGCCAGCACGUGCACACUGGCCUCUUUUCAUUUCACUAGUGGCCGAGACACCCUCUCUGGCAUUUAUCACUGUUGGCCGGUG | 0.99

Study 3
Target: Histone acetyltransferase KAT6A, winged helix 1, GST fusion (KAT6A, Homo sapiens, UniProt Q92794, residues 1-85)
Technique: protein binding microarray
Molecule type: double-stranded DNA, one strand shown
Sample: in vitro
Tested at: not given
Setting: 8-mer, flanks averaged, mean of 2 arrays, mostly near background
Baseline: not given
Direction: higher = stronger binding
Construct (chain): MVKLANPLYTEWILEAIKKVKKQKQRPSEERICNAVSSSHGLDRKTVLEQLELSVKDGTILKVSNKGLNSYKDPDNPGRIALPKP
Oligonucleotide | E-score
GGACCTCC | 0.0927
GGGGCTAA | -0.185
CCGGTCAG | 0.234
ATCCCGGC | 0.365
GATGCTAC | 0.0237
CCGAGCGA | 0.23
ACTAACCC | -0.118
GACCGGGA | 0.265
AGCTCAAT | -0.13
ATCCCGAA | -0.0963
AAGGGGGA | -0.0526
AGTTCTCA | -0.174
GCTAATAC | 0.0456
ACGATATC | -0.0767
CTAAATCA | -0.113
CCTCCCTA | -0.246
GGTGTTAC | 0.0309
CGATCAAG | -0.00932
GACCGCAC | 0.192
GCAATTAC | 0.228
ACCCGGTG | 0.301
AGAATCCA | -0.2
AAGATAAG | -0.211
ACACTGAC | -0.187
CCGTGGCA | 0.157

Study 4
Target: MAFG, bZIP domain (human)
Technique: DHFR protein complementation
Sample: yeast
Setting: single substitutions, most at no-binding floor
Baseline: wild-type JUN-FOS pair
Direction: higher = stronger binding
Parent: JUN, bZIP domain (human); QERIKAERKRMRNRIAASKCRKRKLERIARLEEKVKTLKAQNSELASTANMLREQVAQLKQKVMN; partner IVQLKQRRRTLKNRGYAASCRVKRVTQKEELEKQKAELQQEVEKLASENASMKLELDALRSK
Change | binding fitness
R53H | -1.49 natural log
L38F | -1.34 natural log
L45Y | -1.47 natural log
A29T | -1.45 natural log
S43G | -1.37 natural log
M51P | -1.42 natural log
S43M | -1.3 natural log
L52H | -1.56 natural log
L45F | -1.53 natural log
E44Q | -1.4 natural log
L38P | -1.47 natural log
L31C | -1.32 natural log
K34H | -1.42 natural log

Study 5
Target: CCNA1, cyclin fold, Cln2 fusion (human)
Technique: yeast growth competition, sequencing
Sample: yeast
Setting: weak parent motif
Baseline: not given
Direction: higher = stronger binding
Parent: MICAL3 docking peptide (human); LQLRRQLSFSEDS; partner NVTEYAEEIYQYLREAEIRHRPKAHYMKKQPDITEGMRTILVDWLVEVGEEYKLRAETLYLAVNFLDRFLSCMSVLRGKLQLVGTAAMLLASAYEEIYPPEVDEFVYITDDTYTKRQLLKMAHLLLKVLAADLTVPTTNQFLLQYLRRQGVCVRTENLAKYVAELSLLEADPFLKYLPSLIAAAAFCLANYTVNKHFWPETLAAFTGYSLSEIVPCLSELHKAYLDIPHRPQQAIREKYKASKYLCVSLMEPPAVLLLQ
Change | normalised enrichment score
LQGRRQLSFSEDS [L3G] | 0.749
LQLRRNLSFSEDS [Q6N] | -0.0952
LQLRRQLFFSEDS [S8F] | 0.542
LRLRRQLSFSEDS [Q2R] | 0.221
LQNRRQLSFSEDS [L3N] | 0.0902
LQLRRQDSFSEDS [L7D] | -0.224
LQLRRQLSFYEDS [S10Y] | 0.681
LQLRRQYSFSEDS [L7Y] | 0.208
LDLRRQLSFSEDS [Q2D] | -0.0151
LQLRRQLSFSTDS [E11T] | 0.321
LQLRRQLSFEEDS [S10E] | 0.762
LQLRRQLSFCEDS [S10C] | 0.649
LQARRQLSFSEDS [L3A] | 1.53
LQLRRQLSNSEDS [F9N] | -0.264

Study 6
Target: Sal-like protein 4, full length isoform A (SALL4, Homo sapiens, UniProt Q9UJQ4, residues 1-1053)
Chain of UniProt Q9UJQ4 (whole entry, looked up): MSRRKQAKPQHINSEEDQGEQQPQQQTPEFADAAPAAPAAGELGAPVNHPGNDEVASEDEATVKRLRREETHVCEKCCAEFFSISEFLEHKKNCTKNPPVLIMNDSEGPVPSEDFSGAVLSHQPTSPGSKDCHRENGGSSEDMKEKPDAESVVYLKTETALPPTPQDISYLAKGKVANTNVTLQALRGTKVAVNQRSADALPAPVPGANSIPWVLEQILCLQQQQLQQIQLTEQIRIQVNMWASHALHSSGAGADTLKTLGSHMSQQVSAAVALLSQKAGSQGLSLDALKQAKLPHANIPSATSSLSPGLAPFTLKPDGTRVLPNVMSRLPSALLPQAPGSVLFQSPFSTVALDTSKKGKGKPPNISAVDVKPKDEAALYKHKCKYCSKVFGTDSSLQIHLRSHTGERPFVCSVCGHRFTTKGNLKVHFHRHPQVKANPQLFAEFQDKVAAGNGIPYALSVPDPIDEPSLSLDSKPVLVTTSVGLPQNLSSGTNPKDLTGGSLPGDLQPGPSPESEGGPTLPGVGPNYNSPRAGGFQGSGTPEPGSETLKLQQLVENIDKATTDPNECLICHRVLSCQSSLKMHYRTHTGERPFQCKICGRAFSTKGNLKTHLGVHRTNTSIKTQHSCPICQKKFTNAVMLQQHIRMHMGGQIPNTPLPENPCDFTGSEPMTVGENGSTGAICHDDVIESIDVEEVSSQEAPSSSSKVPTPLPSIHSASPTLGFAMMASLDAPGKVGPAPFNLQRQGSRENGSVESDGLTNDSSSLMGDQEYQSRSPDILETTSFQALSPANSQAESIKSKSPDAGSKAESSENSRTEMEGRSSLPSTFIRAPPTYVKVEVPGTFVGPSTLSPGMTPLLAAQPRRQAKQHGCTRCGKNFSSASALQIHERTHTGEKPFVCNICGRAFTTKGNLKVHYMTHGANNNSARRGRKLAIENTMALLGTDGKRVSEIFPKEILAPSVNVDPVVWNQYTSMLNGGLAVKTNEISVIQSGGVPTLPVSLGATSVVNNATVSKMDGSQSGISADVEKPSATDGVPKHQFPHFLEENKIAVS
Technique: universal PBM
Molecule type: double-stranded DNA, one strand shown
Sample: in vitro
Tested at: 600 nM
Setting: 8-mer, flanks averaged, mean of replicates
Direction: higher = stronger binding
Oligonucleotide | E-score
GCCCTGCA | -0.289
CCCTTGGC | -0.355
GAGATCCA | -0.159
GCAATTGA | -0.0121
AAAGAAGA | 0.128
TTACCGAA | 0.136
CACGCTCA | -0.0529
CCAGCGCA | -0.278
CCAGCGGG | -0.222
CCCTATCG | -0.0705
GTGAGCCA | -0.0651
ACACCCCG | -0.331
GACAGATC | -0.0339
TCGTCAGA | -0.0819
AGAACTTA | 0.0856
ACGGACAC | -0.178
ATTACGAG | 0.168
ACGGTAAG | -0.0779
CAGCCTGG | -0.266
GAAACCTA | -0.0199
GCAGAACA | -0.0347
CCCATCTC | -0.245

For quick reference, copied from above (study 5):
Change | normalised enrichment score
LQGRRQLSFSEDS [L3G] | 0.749
LQLRRNLSFSEDS [Q6N] | -0.0952
LQLRRQLFFSEDS [S8F] | 0.542
LRLRRQLSFSEDS [Q2R] | 0.221
LQNRRQLSFSEDS [L3N] | 0.0902
LQLRRQDSFSEDS [L7D] | -0.224
LQLRRQLSFYEDS [S10Y] | 0.681
LQLRRQYSFSEDS [L7Y] | 0.208
LDLRRQLSFSEDS [Q2D] | -0.0151
LQLRRQLSFSTDS [E11T] | 0.321
LQLRRQLSFEEDS [S10E] | 0.762
LQLRRQLSFCEDS [S10C] | 0.649
